Results collected from several papers.
Compare with care: the assays were run in different laboratories.
CDC42BPG: Serine/threonine-protein kinase MRCK gamma (CDC42BPG, Homo sapiens, UniProt Q6DT37)
TDP1: Tyrosyl-DNA phosphodiesterase 1 (TDP1, Homo sapiens, UniProt Q9NUW8)
Sequence of UniProt Q9NUW8 (whole entry, looked up): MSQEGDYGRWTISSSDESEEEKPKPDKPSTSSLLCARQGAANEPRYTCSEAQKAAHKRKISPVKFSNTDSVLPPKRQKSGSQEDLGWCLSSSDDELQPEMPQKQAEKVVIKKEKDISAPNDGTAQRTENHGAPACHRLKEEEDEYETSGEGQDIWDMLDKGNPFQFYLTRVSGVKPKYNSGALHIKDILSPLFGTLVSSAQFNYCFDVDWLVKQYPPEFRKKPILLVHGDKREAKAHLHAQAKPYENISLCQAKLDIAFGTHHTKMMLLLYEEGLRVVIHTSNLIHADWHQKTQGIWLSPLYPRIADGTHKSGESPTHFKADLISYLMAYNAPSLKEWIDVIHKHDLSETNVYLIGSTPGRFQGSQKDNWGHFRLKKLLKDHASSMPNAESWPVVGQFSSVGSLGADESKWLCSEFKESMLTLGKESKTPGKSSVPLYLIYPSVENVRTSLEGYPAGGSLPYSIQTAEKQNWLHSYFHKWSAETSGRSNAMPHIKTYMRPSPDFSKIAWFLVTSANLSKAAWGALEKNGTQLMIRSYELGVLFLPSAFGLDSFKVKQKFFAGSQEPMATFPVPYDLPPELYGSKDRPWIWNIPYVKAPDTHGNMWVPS

COc1cc(Nc2nc(C)cc(-c3cnn4nc(OC)ccc34)n2)cc(C(F)(F)F)c1  remaining activity (CDC42BPG; inhibitor; 1 µM, DMPK2; reference: control): 89%
COc1c(Cl)cccc1Nc1c(-c2ccncc2C#C[C@@]2(C)CCCN2C(=O)/C=C/CN(C)C)[nH]c2c1C(=O)NCC2  remaining binding (CDC42BPG; binding, competition with immobilised ligand; 3 µM): 64%
CC(C)=CC1OC(C)(C)C2C=C3C(=O)C(Cl)=CC(O)C3C3C(O)C4OC4C(=O)C132 (centres unmarked)  remaining binding (CDC42BPG; binder, KINOMEscan competition binding; 10 µM; reference: DMSO control): 67%
Cc1nc(N2CCCCC2)nc(O)c1C=NOCc1ccc(-c2nc3cc(-c4ccccc4)ccn3c2Nc2ccc(C(=O)O)cc2)cc1 (mixture of isomers)  inhibition (TDP1; enzyme activity, inhibitor; 100 µM, unpurified compound): 84.3%
C=CC(=O)N1CCCC(n2c(=O)c3ncccc3n(Cc3ccc(Oc4ccccc4)cc3)c2=O)C1 (centres unmarked)  remaining binding (CDC42BPG; cell-free assay, competition with immobilised ligand; 1 µM): 92%
CN1CCOc2cc(C=NOCc3ccc4nc(-c5ccccc5)c(Nc5ccc(C(=O)O)cc5)n4c3)cnc21  inhibition (TDP1; enzyme activity, inhibitor; 100 µM, unpurified compound): 3%
O=C(Cc1ccc(OCc2ccccc2)cc1)NC1(C(=O)O)CCN(C(=O)c2ccc(-c3cccc(Cl)c3)cc2)CC1  activity vs control (CDC42BPG; enzyme activity, inhibitor; 10 µM): 112%
Nc1ncc(-c2cc(-c3cnn(CC(F)(F)F)c3)ncc2F)nc1C(=O)NC1CNCC(F)C1 (centres unmarked)  remaining activity (CDC42BPG; enzyme activity; 1 µM; reference: DMSO control): 86%
C=CC(=O)N1CCc2ccc(-n3c(=O)ccc4cnc5ccc(-c6cnn(C)c6)cc5c43)cc21  remaining binding (CDC42BPG; KINOMEscan; 1 µM; reference: DMSO control): 100%
NC(=O)[C@@H](O)C[C@H]1CCc2sc3ncnc(O[C@H]4CC[C@H](N5CCOCC5)CC4)c3c21  inhibition (CDC42BPG; radioisotope kinase; 10 µM): 4%
CCn1cc(C(=O)O)c(=O)c2c(N)c(F)c(NC3CCCCC3)cc21  inhibition (CDC42BPG; kinase activity; 0.1 µM, together with: ATP at Km): 6.7%

Some of these lines once more:
COc1cc(Nc2nc(C)cc(-c3cnn4nc(OC)ccc34)n2)cc(C(F)(F)F)c1  remaining activity (CDC42BPG; inhibitor; 1 µM, DMPK2; reference: control): 89%
